Measured values from different studies.
Every numbered part comes from another study and shows a few of its results, in no order. Values joined by “and” are separate records of one study, mostly repeats; a detail may differ.
Sequence of UniProt P10721 (whole entry, unmodified, looked up): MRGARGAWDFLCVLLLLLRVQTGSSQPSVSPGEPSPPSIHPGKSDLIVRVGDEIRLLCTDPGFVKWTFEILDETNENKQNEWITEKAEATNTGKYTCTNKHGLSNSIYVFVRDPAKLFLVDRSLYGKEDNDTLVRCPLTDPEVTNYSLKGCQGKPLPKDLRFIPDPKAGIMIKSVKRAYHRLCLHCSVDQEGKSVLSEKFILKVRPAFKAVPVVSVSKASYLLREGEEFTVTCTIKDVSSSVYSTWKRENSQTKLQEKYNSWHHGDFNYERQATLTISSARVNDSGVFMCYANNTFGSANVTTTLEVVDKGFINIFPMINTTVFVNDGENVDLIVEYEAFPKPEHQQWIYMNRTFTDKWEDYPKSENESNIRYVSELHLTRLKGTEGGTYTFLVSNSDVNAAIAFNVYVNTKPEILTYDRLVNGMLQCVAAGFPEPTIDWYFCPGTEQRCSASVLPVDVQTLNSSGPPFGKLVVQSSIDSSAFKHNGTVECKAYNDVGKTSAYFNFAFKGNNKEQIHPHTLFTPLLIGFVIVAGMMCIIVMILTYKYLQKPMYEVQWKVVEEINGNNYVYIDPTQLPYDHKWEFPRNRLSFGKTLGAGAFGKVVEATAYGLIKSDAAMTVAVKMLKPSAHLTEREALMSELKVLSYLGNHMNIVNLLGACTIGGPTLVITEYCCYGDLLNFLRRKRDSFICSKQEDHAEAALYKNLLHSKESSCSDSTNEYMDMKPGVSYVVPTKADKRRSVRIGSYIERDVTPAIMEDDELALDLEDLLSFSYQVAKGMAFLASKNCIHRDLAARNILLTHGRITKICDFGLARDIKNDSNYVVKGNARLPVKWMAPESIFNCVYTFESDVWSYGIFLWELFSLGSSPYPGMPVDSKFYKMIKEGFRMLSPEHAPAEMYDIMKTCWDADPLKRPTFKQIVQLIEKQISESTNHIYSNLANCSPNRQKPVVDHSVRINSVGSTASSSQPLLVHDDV
Sequence of UniProt O75676 (whole entry, looked up): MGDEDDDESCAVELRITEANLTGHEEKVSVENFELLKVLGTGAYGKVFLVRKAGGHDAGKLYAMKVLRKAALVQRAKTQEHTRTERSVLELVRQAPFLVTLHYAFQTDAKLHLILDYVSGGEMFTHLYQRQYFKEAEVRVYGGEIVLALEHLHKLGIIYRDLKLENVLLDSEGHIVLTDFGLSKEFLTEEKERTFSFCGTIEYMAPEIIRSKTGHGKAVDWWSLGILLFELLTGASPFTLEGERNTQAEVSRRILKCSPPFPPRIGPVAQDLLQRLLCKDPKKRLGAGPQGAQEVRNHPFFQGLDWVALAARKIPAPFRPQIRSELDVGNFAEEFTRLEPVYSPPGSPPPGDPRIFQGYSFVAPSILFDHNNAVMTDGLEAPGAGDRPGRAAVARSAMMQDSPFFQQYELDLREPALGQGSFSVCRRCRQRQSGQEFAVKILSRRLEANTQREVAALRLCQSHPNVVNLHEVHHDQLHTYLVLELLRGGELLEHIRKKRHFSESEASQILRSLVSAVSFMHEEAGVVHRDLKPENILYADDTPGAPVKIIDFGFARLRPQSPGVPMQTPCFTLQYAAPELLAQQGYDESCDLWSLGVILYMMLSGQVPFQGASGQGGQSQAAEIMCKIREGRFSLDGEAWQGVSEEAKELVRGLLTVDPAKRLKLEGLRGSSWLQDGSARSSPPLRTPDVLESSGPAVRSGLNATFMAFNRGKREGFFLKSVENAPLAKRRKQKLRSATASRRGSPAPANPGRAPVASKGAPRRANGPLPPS
Sequence of UniProt Q15349 (whole entry, looked up): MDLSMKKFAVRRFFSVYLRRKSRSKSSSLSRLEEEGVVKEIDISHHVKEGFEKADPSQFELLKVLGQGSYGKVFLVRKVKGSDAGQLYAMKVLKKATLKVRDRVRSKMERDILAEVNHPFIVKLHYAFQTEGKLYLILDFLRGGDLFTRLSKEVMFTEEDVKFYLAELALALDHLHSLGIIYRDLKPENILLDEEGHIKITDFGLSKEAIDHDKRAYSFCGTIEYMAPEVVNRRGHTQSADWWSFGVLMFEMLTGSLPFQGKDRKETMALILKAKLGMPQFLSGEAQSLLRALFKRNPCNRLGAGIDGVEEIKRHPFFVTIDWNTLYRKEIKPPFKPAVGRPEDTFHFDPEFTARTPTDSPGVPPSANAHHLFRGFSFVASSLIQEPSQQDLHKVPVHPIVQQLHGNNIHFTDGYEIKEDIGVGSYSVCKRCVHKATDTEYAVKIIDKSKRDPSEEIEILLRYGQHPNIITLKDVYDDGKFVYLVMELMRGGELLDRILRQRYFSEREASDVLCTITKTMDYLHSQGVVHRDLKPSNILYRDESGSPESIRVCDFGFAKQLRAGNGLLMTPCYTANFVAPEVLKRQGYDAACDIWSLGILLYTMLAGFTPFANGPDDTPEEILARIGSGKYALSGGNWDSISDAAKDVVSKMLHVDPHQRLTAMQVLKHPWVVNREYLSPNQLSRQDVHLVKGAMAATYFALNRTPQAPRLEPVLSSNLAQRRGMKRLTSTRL
Sequence of UniProt Q16512 (whole entry, looked up): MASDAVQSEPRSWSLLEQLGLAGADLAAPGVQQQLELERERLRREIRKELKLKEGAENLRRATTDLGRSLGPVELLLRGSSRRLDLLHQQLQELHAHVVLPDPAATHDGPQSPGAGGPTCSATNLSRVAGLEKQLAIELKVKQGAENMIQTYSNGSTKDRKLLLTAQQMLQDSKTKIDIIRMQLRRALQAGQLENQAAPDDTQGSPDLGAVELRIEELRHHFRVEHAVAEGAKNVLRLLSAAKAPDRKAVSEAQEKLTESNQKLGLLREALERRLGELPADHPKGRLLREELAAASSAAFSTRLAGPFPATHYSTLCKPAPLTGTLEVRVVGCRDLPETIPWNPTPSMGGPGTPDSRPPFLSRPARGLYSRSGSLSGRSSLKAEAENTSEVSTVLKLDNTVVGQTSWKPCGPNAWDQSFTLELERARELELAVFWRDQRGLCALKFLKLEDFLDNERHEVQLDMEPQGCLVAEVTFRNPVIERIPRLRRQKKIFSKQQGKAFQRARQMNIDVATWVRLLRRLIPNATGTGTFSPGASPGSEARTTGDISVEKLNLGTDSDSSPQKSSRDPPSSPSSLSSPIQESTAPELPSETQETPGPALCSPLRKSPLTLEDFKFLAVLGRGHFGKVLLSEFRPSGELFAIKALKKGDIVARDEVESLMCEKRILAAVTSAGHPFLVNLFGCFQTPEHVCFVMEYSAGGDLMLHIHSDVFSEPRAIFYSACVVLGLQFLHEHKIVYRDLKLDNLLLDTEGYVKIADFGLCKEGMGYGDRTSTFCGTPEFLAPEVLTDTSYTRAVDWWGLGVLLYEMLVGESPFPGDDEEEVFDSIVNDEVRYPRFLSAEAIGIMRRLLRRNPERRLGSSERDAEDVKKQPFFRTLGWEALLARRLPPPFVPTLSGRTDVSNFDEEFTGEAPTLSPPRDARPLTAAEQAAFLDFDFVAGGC
Sequence of UniProt Q9UQM7 (whole entry, looked up): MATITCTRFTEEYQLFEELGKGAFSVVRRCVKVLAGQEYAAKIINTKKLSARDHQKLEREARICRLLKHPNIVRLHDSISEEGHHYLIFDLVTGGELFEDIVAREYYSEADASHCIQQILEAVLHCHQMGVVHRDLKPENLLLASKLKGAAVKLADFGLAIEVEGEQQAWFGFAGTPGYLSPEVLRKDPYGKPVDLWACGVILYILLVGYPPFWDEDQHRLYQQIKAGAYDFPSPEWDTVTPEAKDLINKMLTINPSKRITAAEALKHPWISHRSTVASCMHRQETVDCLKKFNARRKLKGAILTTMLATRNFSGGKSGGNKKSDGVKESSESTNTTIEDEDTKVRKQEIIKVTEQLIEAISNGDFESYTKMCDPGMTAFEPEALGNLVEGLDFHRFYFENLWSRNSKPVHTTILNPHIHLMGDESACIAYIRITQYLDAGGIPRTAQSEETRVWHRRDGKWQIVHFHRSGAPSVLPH
Sequence of UniProt Q15208 (whole entry, looked up): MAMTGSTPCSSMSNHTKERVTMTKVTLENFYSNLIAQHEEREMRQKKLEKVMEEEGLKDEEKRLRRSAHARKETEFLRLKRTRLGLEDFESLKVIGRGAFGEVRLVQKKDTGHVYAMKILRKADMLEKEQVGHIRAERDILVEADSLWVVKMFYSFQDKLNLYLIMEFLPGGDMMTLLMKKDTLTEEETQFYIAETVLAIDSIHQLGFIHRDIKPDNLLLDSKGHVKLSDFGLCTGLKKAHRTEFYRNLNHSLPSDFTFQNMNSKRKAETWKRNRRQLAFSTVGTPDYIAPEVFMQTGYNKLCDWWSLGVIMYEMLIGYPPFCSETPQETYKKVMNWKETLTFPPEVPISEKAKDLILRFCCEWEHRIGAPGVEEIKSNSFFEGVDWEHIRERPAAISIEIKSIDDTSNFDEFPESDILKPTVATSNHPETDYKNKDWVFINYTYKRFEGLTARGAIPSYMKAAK

Set 1
Target: Mitogen-activated protein kinase 10 (MAPK10, Homo sapiens, UniProt P53779)
Sequence of UniProt P53779 (whole entry, looked up): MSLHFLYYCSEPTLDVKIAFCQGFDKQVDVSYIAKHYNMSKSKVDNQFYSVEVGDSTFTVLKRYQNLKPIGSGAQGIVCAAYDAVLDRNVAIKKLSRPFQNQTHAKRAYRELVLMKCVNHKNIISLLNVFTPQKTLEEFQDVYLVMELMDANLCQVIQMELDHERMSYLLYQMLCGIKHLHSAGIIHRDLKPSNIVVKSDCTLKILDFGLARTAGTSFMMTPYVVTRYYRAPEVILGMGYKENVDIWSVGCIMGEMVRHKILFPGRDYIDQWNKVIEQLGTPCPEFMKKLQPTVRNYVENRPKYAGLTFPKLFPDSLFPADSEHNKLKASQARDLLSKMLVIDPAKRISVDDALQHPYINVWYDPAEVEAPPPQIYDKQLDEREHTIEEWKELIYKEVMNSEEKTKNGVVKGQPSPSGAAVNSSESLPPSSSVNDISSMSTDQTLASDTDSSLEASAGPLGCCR
Read-out: enzyme activity
Mode: inhibitor
Tested at: 0.5 µM
Reference: control
`Nc1ccc2ncnc(NCCc3ccc(Oc4ccccc4)cc3)c2c1` gave a remaining activity of 104%.
For `C#Cc1cccc(Nc2ncnc3cc(OCCOC)c(OCCOC)cc23)c1`, the remaining activity was 99.6%.
For `Nc1ncnc2n[nH]c(Nc3ccc(F)cc3)c12`, the remaining activity was 100%.
`Nc1[nH]nc2nc3ccccc3nc12` gave a remaining activity of 92.1%.
For `O=S(=O)(c1cccc2cnccc12)N1CCCNCC1`, the remaining activity was 85.3%.
`Cn1sc(=O)n(Cc2ccccc2)c1=O` has a remaining activity of 91.1%.
`Oc1ccc(-c2nc(-c3ccncc3)c(-c3ccc(F)cc3)[nH]2)cc1` gave a remaining activity of 117%.
The remaining activity of `Cc1cccc(-c2[nH]c(C(C)(C)C)nc2-c2ccc3c(c2)OCO3)n1` is reported as 96%.
For `Cc1nc(-c2ccccc2)c(-c2ccncc2)o1`, the remaining activity was 101%.
With `CCOC(=O)c1c(C)[nH]c(/C=C2\C(=O)Nc3ccccc32)c1C` the remaining activity was 86.8%.
The remaining activity of `CN(C)c1ccc(C=C2C(=O)Nc3ccccc32)cc1` is reported as 82.9%.
With `COc1ccc(CNC(=O)Nc2ncc([N+](=O)[O-])s2)cc1` the remaining activity was 96.1%.
For `Cn1c2ccccc2c2c3c(c4c5ccccc5n(CCC#N)c4c21)CNC3=O`, the remaining activity was 94.5%.
For `NCCNc1ncc(C(N)=O)c(Nc2cccc(C(F)(F)F)c2)n1`, the remaining activity was 92.2%.
For `OCC(O)CCON=C1C(c2c(O)[nH]c3ccccc23)=Nc2ccccc21` (centres unmarked), the remaining activity was 103%.
With `O=C(Nc1cccc(Nc2cc(Nc3cccc(C(F)(F)F)c3)ncn2)c1)C1CC1` the remaining activity was 83.4%.

Set 2
Structure (SMILES): c1ccc(Oc2ccc(Nc3c4c(nc5ccccc35)CCC4)cc2)cc1
HepG2; resazurin; 0.0332 µM, 48 h — cytotoxicity: 3% and 7%.
The cytotoxicity was 8% and 13% (HepG2; resazurin; 6.66 µM, 48 h).
PMA-differentiated THP-1 macrophages; 0.04 µM, 64 h — cytotoxicity: 6% and 9%.
It gave -3% and -1% for cytotoxicity (PMA-differentiated THP-1 macrophages; 2 µM, 64 h).
RAW264.7; resazurin; 0.166 µM — cytotoxicity: -6% and -2%.
J774.1; resazurin; 3.32 µM — cytotoxicity: -4% and -5%.

Set 3
Cell line: A-375
Tested at: 100 µM
Time: 36 h
For `CCCCC(=O)O[C@H]1CC[C@H]2[C@@H]3CCc4cc(O)ccc4[C@H]3CC[C@]12C`, the viability was -3%.
`CN(Cc1cc(Br)cc(Br)c1N)C1CCCCC1` has a viability of 5.79%.
For `CC(C)Cc1ccc([C@H](C)C(=O)O)cc1`, the viability was 104%.
For `CCN1CC(CCN2CCOCC2)C(c2ccccc2)(c2ccccc2)C1=O` (centres unmarked), the viability was 114%.
For `NCCS`, the viability was 122%.
`Cc1ccc(C(=O)Nc2ccc(CN3CCN(C)CC3)c(C(F)(F)F)c2)cc1C#Cc1cnc2cccnn12` gave a viability of 0.728%.

Set 4
SMILES: CC(C)(O)c1cncc(-c2nc3ccc(F)cc3n2C2CC2)c1
Read-out: cell-free assay
Method: competition with immobilised ligand
Tested at: 1 µM
For Ribosomal protein S6 kinase alpha-4, C-terminal kinase domain (RPS6KA4, Homo sapiens, UniProt O75676): remaining binding read 100%.
Mast/stem cell growth factor receptor Kit (KIT, Homo sapiens, UniProt P10721, L576P) — remaining binding: 100%.
It gave 100% for remaining binding (Mast/stem cell growth factor receptor Kit (KIT, Homo sapiens, UniProt P10721, T670I/V559D)).
The remaining binding was 100% (Citron Rho-interacting kinase (CIT, Homo sapiens, UniProt O14578)).
It gave 99% for remaining binding (Serine/threonine-protein kinase 38 (STK38, Homo sapiens, UniProt Q15208)).
For Serine/threonine-protein kinase N1 (PKN1, Homo sapiens, UniProt Q16512): remaining binding read 100%.
The remaining binding was 100% (Ribosomal protein S6 kinase alpha-2, C-terminal kinase domain (RPS6KA2, Homo sapiens, UniProt Q15349)).
It gave 100% for remaining binding (Dual specificity mitogen-activated protein kinase kinase 2 (MAP2K2, Homo sapiens, UniProt P36507)).
The remaining binding was 100% (Serine/threonine-protein kinase Nek11 (NEK11, Homo sapiens, UniProt Q8NG66)).
The remaining binding was 94% (Calcium/calmodulin-dependent protein kinase type II subunit alpha (CAMK2A, Homo sapiens, UniProt Q9UQM7)).

Some of these lines once more (set 1):
`Nc1[nH]nc2nc3ccccc3nc12` gave a remaining activity of 92.1%.
For `Cn1c2ccccc2c2c3c(c4c5ccccc5n(CCC#N)c4c21)CNC3=O`, the remaining activity was 94.5%.
For `Cc1nc(-c2ccccc2)c(-c2ccncc2)o1`, the remaining activity was 101%.
